Measured values pooled from the literature.
A part holds a random share of what one study measured. Substitutions count along the parent as printed.

Study 1
Target: CCNA2, cyclin fold, Cln2 fusion (human)
Method: yeast growth competition, sequencing
Sample: yeast
Notes: weak parent motif
Reference: not given
Reading: higher = stronger binding
Parent: HIRA docking peptide (human); SLSKRKLELEVET
`SLSKRALELEVET [K6A]`: “normalised enrichment score” 0.322.
`SLSKKKLEFEVET [R5K L9F]` — result for “normalised enrichment score”: 2.8.
Under “normalised enrichment score”, `SLSKRKLELEVEA [T13A]` is recorded as 1.2.
`SLAKRKLELEVET [S3A]` — result for “normalised enrichment score”: 1.51.
`SLSKRKLEAEVET [L9A]`: “normalised enrichment score” -0.265.
For `ALSKRKLELEVET [S1A]`, “normalised enrichment score” read 1.26.
Under “normalised enrichment score”, `SASKRKLELEVET [L2A]` is recorded as 0.425.

Study 2
Target: Interferon regulatory factor 3, full length, phosphomimetic (IRF3, Homo sapiens, UniProt Q14653, residues 1-427, S386D/S396D/S398D/S402D/T404D/S405D)
Method: protein-binding microarray
Molecule type: double-stranded DNA, one strand shown
Sample: in vitro
Tested at: 2540 nM top
Notes: 60-bp whole probe
Added: salmon DNA 0.4 mg/ml
Reference: random background probes
Reading: higher = stronger binding
Constant ends, left off below: GCCTAGCAC … GTCTTGATTCGCTTGACGCTGCTG
Residues (chain): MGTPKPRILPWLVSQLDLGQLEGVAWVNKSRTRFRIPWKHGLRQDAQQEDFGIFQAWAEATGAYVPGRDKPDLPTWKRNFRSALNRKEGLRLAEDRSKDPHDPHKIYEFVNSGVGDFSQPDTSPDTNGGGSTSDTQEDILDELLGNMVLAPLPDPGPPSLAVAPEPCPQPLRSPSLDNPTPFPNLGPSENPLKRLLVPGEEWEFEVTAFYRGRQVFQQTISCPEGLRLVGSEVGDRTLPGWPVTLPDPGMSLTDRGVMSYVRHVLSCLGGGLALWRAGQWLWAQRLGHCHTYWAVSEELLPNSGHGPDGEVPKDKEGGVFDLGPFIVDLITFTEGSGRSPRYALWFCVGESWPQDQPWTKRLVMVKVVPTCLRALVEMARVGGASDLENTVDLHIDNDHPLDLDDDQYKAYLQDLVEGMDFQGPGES
`TCAAGTTTCACTTTCCAACTGTGCTAG`: “fitted relative affinity” 8.27 z-score.
`TCAGTTTTTCATTTTTTACTGTGCTAG`: “fitted relative affinity” 1.94 z-score.
`GTGTGTCTGATTATTTACATGTGCTAG` — result for “fitted relative affinity”: 0.766 z-score.
`CACGGTTTCGGGACTGGGGACGTGCTA`: “fitted relative affinity” 4.15 z-score.
For `GGACCGCGACCTGCCAAGTCGTGCTAG`, “fitted relative affinity” read -0.705 z-score.
Under “fitted relative affinity”, `TCATTTTTAGAAATTTTTACTGTGCTA` is recorded as 1.42 z-score.
`TTAGGACTGCTAATGCTTTAGTGCTAG`: “fitted relative affinity” -0.54 z-score.
For `ACAGCTCACGCTTTGGAAAGGTGCTAG`, “fitted relative affinity” read -0.252 z-score.

Study 3
Target: CREBZF, bZIP domain (human)
Method: DHFR protein complementation
Sample: yeast
Notes: single substitutions, most at no-binding floor
Reference: wild-type JUN-FOS pair
Reading: higher = stronger binding
Parent: JUN, bZIP domain (human); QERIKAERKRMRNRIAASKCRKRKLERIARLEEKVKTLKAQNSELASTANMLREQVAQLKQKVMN; partner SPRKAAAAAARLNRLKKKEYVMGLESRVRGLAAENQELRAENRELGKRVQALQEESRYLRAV
`I28P` has a binding fitness of -1.5 natural log.
The binding fitness of `A46L` is reported as -1.4 natural log.
`L31I` has a binding fitness of -1.49 natural log.
`K39F` gave a binding fitness of -1.4 natural log.
The binding fitness of `K39P` is reported as -1.51 natural log.
`L45I` has a binding fitness of -1.48 natural log.

Single results of other studies
The fold induction of `PhoQ, residues 284 288 289 292 302 303 SIHLQL` is reported as 13.2 (PhoP, residues 12 14 15 18 19 NFCKL (Escherichia coli, UniProt P23836); Sort-seq, refers to: YFP reporter; E. coli; PhoQ-PhoP variant library, added: 10 µM Mg2+; reference: high Mg2+ state, higher = stronger signaling).

For quick reference, copied from above (study 2):
For `GGACCGCGACCTGCCAAGTCGTGCTAG`, “fitted relative affinity” read -0.705 z-score.
`TCAGTTTTTCATTTTTTACTGTGCTAG`: “fitted relative affinity” 1.94 z-score.
`TTAGGACTGCTAATGCTTTAGTGCTAG`: “fitted relative affinity” -0.54 z-score.
`TCAAGTTTCACTTTCCAACTGTGCTAG`: “fitted relative affinity” 8.27 z-score.
